Published values pooled from the literature.
CDK4 with cyclin D3: Cyclin-dependent kinase 4, with cyclin D3 (CDK4, Homo sapiens, UniProt P11802)
CDK4 with cyclin D1: Cyclin-dependent kinase 4, with cyclin D1 (CDK4, Homo sapiens, UniProt P11802)
CDK4: Cyclin-dependent kinase 4 (CDK4, Homo sapiens, UniProt P11802)

| Compound | target | assay | setting | scale | remaining binding |
| --- | --- | --- | --- | --- | --- |
| C=CC(=O)N1CCc2ccc(-n3c(=O)ccc4cnc5ccc(-c6cnn(C)c6)cc5c43)cc21 | CDK4 with cyclin D3 | KINOMEscan | 1 µM | reference: DMSO control | 100% |
| CCN1CCN(Cc2ccc(C(=O)Nc3ccc(C)c(NCc4cnc5[nH]ccc5c4OC)c3)cc2C(F)(F)F)CC1 | CDK4 with cyclin D3 | binding, competition with immobilised ligand | 1 µM |  | 72% |
| CNC(=O)C1CCN(c2cc(C)c(F)cc2NC(=O)c2ccc(-c3cc(O)ccc3C)c(C)c2)CC1 | CDK4 with cyclin D3 | binding, competition with immobilised ligand | 1 µM |  | 100% |
| COc1c(Cl)cccc1Nc1c(-c2ccncc2C#C[C@@]2(C)CCCN2C(=O)/C=C/CN(C)C)[nH]c2c1C(=O)NCC2 | CDK4 with cyclin D3 | binding, competition with immobilised ligand | 3 µM |  | 91% |
| Cc1cnc2nc1Nc1cccc(c1)COC/C=C/COCc1cc(ccc1OCCN1CCOCC1)N2 | CDK4 with cyclin D1 | binding | 0.1 µM |  | 100% |
| Cc1ccc(-c2c(/C=C(\C#N)C(=O)NC(C)C)n(CCCO)c3ncnc(N)c23)cc1 | CDK4 with cyclin D3 | cell-free assay, competition with immobilised ligand | 1 µM |  | 95% |
| Nc1ncc2c(n1)-c1c([nH]c3ccc(C4=CCOCC4)cc13)CCC2 | CDK4 with cyclin D1 | binding, competition with immobilised ligand | 1 µM |  | 97% |
| CC(C)=CC1OC(C)(C)C2C=C3C(=O)C(Cl)=CC(O)C3C3C(O)C4OC4C(=O)C132 (stereo not shown) | CDK4 with cyclin D1 | cell-free assay, competition with immobilised ligand | 10 µM |  | 81% |
| C[C@]1(O)CCCN(c2nc(Nc3ccc(S(=O)(=O)N[C@H]4CC[C@H](CN5CCN(c6ccc(C7CCC(=O)NC7=O)cc6F)CC5)CC4)cc3)ncc2C(F)(F)F)C1 (stereo partly shown) | CDK4 | binding, competition with immobilised ligand | 1 µM |  | 100% |
| CNC1C[S+]2CC[S+]3CC[S+](C1)[Ru-4]321([N]=C=S)[n]2c3ccc(OC)cc3c3c4c(c5cc(F)c[n+]1c5c32)C(=O)NC4=O (stereo not shown) | CDK4 with cyclin D3 | KinomeScan | 0.1 µM | reference: untreated | 100% |
| COc1cc(Nc2nccc(-c3cnn4nc(OC)ccc34)n2)cc(C(F)(F)F)c1 | CDK4 with cyclin D1 | binding, competition with immobilised ligand | 1 µM |  | 96% |
| O=C(Nc1cc(-c2ccnc3[nH]ccc23)c(Cl)cn1)[C@H]1CCC[C@@H](NC(=O)C(F)(F)F)C1 | CDK4 with cyclin D3 | kinome scan | 0.1 µM | reference: control | 10% |
| C=CC(=O)N1CCCC(n2c(=O)c3ncccc3n(Cc3ccc(Oc4ccccc4)cc3)c2=O)C1 (stereo not shown) | CDK4 | cell-free assay, competition with immobilised ligand | 1 µM |  | 83% |

Excerpt of the above:
| Compound | target | assay | setting | scale | remaining binding |
| --- | --- | --- | --- | --- | --- |
| COc1c(Cl)cccc1Nc1c(-c2ccncc2C#C[C@@]2(C)CCCN2C(=O)/C=C/CN(C)C)[nH]c2c1C(=O)NCC2 | CDK4 with cyclin D3 | binding, competition with immobilised ligand | 3 µM |  | 91% |
| CNC1C[S+]2CC[S+]3CC[S+](C1)[Ru-4]321([N]=C=S)[n]2c3ccc(OC)cc3c3c4c(c5cc(F)c[n+]1c5c32)C(=O)NC4=O (stereo not shown) | CDK4 with cyclin D3 | KinomeScan | 0.1 µM | reference: untreated | 100% |
